Measured values collected from several papers.
Each line is one published result; not all experiments were run side by side. ± marks the error that the study gave.

| Structure (SMILES) | assay | test system | setting | how to read | measurement | result |
| --- | --- | --- | --- | --- | --- | --- |
| Cc1c(Cl)cccc1Nc1ccccc1C(=O)O | cytochrome c release, ELISA | BALB/cByJ female mouse liver mitochondria | 30 min | reference: alamethicin maximal release | EC20 | > 200 µM |
| O=C(Cc1cccc(OC(F)(F)F)c1)Nc1ccc(CCCCc2nnc(NC(=O)Cc3ccccn3)s2)nn1 | – | human patients, plasma | oral, 400 mg three times daily fasted, cycle 1 day 15 steady state | – | AUC(0-8h) | 3850 ng·h/mL |
| O=C(O)c1cccc(CN2CN(C3CCCCC3)C3(CCN(CCCC(=O)c4ccccc4)CC3)C2=O)c1 | – | rat Sprague Dawley female | 300 mg/kg/day, 4 to 8 min after start, second session | – | rearing activity | 4 counts |
| [2H]C([2H])([2H])Oc1cc2c(cc1OC([2H])([2H])[2H])C1CC(=O)C(CC(C)C)CN1CC2 (stereo not shown) | item: deuterated total (α+β)-HTBZ | healthy human volunteers, plasma | oral, 24 mg single dose, standard meal | – | dose-normalized AUC(0-inf) | 22.7 ng·h/mL |
| C[C@]12CC[C@@H]3c4ccc(O)cc4CC[C@H]3[C@@H]1C[C@@H](O)[C@@H]2O | GC-MS | breast cancer women on NSAI, serum | vaginal, 0.03 mg daily, 8 h, day 28 | – | maximum serum concentration | 0.0437 ng/mL |
| O=C(O)CCc1cccc(O)c1O | – | human, fasted baseline, cerebrospinal fluid | – | – | mean concentration | 15.9 nM |
| CCCC[C@H](NC(C)=O)C(=O)N[C@H]1CCC(=O)NC[C@@H](C(=O)N[C@@H](Cc2c[nH]c3ccccc23)C(N)=O)NC(=O)[C@H](CCCNC(=N)N)NC(=O)[C@@H](Cc2ccccc2)NC(=O)[C@H](Cc2c[nH]cn2)NC1=O | – | human, plasma | subcutaneous, 3 mg, single dose, healthy volunteers | – | Vd/F | 348 L |
| C#C[C@]1(CO)O[C@@H](n2cnc3c(N)nc(F)nc32)C[C@@H]1O | – | human, plasma | oral, 30 mg once weekly, week 3 | – | AUC(0-168 h) | 3.98 µM·h |
| CN(C/C=C/C#CC(C)(C)C)Cc1cccc2ccccc12 | mitochondrial swelling | BALB/cByJ female mouse liver mitochondria | 30 min, together with: succinate + rotenone | reference: CaCl2 maximal swelling | EC20 | 20.6 µM |
| CC(C)[C@H](NC(=O)[C@@H]1CCCN1C(=O)[C@H](CCCNC(=N)N)NC(=O)[C@H](CS)NC(=O)[C@H](Cc1c[nH]c2ccccc12)NC(=O)[C@H](CCCNC(=N)N)NC(=O)[C@@H](Cc1ccccc1)NC(=O)[C@H](Cc1c[nH]cn1)NC(=O)[C@H](CCC(=O)O)NC(=O)[C@H](CS)NC(=O)[C@H](CS)NC(=O)[C@H](CCCCN)NC(=O)[C@@H]1CC(=O)N[C@@H](CCCNC(=N)N)C(=O)N[C@@H]([C@@H](C)O)C(=O)N[C@@H](CC(=O)O)C(=O)N[C@H](Cc2ccc(O)cc2)C(=O)N1)C(N)=O [technetium-99m labelled] | – | female C57 mouse, B16/F1 melanoma, kidneys | intravenous, dose not given, 2 h, together with: NDP-MSH 10 µg co-injected | – | tissue uptake | 96.2 ± 28.1 %ID/g |
| CC(=O)N[C@@H](Cc1ccccc1)C(=O)N[C@H]1CCCNC(=O)[C@H](CCCNC(=N)N)NC(=O)[C@H](Cc2c[nH]c3ccccc23)NC(=O)[C@@H](CC2CCCCC2)NC(=O)[C@@H]2CCCN2C1=O | – | C57BL/6J mice, brain | oral, 1 mg/kg | – | elimination half-life | 1.58 h |
| CC(C)c1c(C(=O)Nc2ccccc2)c(-c2ccccc2)c(-c2ccc(F)cc2)n1CC[C@@H](O)C[C@@H](O)CC(=O)O | cytochrome c release, ELISA | BALB/cByJ female mouse liver mitochondria | 30 min | reference: alamethicin maximal release | EC20 | < 50 µM |
| CC(=O)[C@H]1CC[C@H]2[C@@H]3CCC4=CC(=O)CC[C@]4(C)[C@H]3CC[C@]12C | in situ brain perfusion | rat | no efflux inhibition | – | log intrinsic permeability | -3.74 |
| CCCCCCCCCCN(C)C | liver S9 substrate depletion | rainbow trout liver S9 | six-surfactant mixture | – | in vivo intrinsic clearance | 321 mL/h/g liver |
| CC[C@@H]1C(=O)N(C)c2cnc(Nc3ccc(C(=O)N[C@H]4CC[C@H](N5CCN(CC6CC6)CC5)CC4)cc3OC)nc2N1C(C)C | non-compartmental analysis | human, plasma | intravenous infusion, 450 mg (first infusion) | – | Vss | 3540 L |
| CO[C@H]1/C=C/O[C@@]2(C)Oc3c(C)c(O)c4c(O)c(c(/C=N/N5CCN(C)CC5)c(O)c4c3C2=O)NC(=O)/C(C)=C\C=C\[C@H](C)[C@H](O)[C@@H](C)[C@@H](O)[C@@H](C)[C@H](OC(C)=O)[C@@H]1C | mitochondrial swelling | BALB/cByJ female mouse liver mitochondria | 30 min, together with: succinate + rotenone | reference: CaCl2 maximal swelling | EC20 | > 800 µM |
| Cc1nc2cccc(OCC(C)(C)C(=O)NC(C)C)c2c(N)c1C(=O)O | – | Sprague-Dawley rat, female, plasma | oral, 100 mg/kg, day 1 | – | Tmax | 0.25 h |
| CCCCc1oc2ccccc2c1C(=O)c1cc(I)c(OCCN(CC)CC)c(I)c1 | cytochrome c release, ELISA | BALB/cByJ female mouse liver mitochondria | 30 min | reference: alamethicin maximal release | EC20 | < 50 µM |
| CC(C(=O)O)c1ccc(-c2ccccc2)c(F)c1 (stereo not shown) | – | human, dried blood spots | dose not given, prasugrel alone session | – | AUC(0-6 h) | 3870 ng·h/mL |
| CCc1cc2c(C(=O)c3cc(Br)c(O)c(Br)c3)cc(Br)c(O)c2o1 | metabolic stability | Sprague-Dawley rat, liver microsomes | 1 µM, pH 7.4 | – | microsomal CLint | 2.6 µL/min/mg |
| C#Cc1cccc(Nc2ncnc3cc(OCCOC)c(OCCOC)cc23)c1 | – | NOD/SCID mouse, male, whole blood or plasma | oral, 12.5 mg/kg every 12 h, 12 h, day 1 | – | Cmin | 521 ± 169 ng/mL |
| COc1cccc2c1C(=O)c1c(O)c3c(c(O)c1C2=O)C[C@@](O)(C(C)=O)C[C@@H]3O[C@H]1C[C@H](N)[C@H](O)[C@H](C)O1 | mitochondrial swelling | BALB/cByJ female mouse liver mitochondria | 30 min, together with: succinate + rotenone | reference: CaCl2 maximal swelling | EC20 | < 6.25 µM |
| CCCC[C@@H]1NC(=O)[C@@H](NC(=O)[C@H](CCC(=O)O)NC(=O)CNC(=O)CN2CCN(CC(=O)O)CCN(CC(=O)O)CCN(CC(=O)O)CC2)CCCCNC(=O)C[C@@H](C(N)=O)NC(=O)[C@H](C(C)C)NC(=O)[C@@H]2CCCN2C(=O)[C@H](CCCNC(=N)N)NC(=O)CNC(=O)[C@H](Cc2c[nH]c3ccccc23)NC(=O)[C@H](CCCNC(=N)N)NC(=O)[C@@H](Cc2ccccc2)NC(=O)[C@H](Cc2c[nH]cn2)NC(=O)[C@H](CCC(=O)O)NC1=O [indium-111 labelled] | – | C57 mice, B16F10 lung metastasis, urine | intravenous, 0.037 MBq, 24 h | – | urinary excretion | 95.61 ± 0.59% |

| Structure (SMILES) | assay | test system | setting | how to read | measurement | result |
| --- | --- | --- | --- | --- | --- | --- |
| C[C@H](Oc1ccc(-c2nc(-c3ccc4[nH]cnc4c3)no2)cc1C(F)(F)F)C(F)(F)F.Cl | – | cynomolgus monkey aneurysm model, plasma | 0.1 mg/kg once daily, 3 months dosing | – | predose plasma concentration | 10 ± 2.6 nM |
| CNCc1ccc(-c2[nH]c3cc(F)cc4c3c2CCNC4=O)cc1 | – | human cancer patients, plasma | intravenous, 4 mg/m2, day 1, together with: temozolomide 100 | – | AUC(0-24 h) | 205 ng·h/mL |
| O=C(O)c1ccccc1Nc1cccc(C(F)(F)F)c1 | cytochrome c release, ELISA | BALB/cByJ female mouse liver mitochondria | 30 min | reference: alamethicin maximal release | EC20 | > 200 µM |
| C[C@@]12C[C@@]3(O)O[C@@H](O1)[C@]1(COC(=O)c4ccccc4)[C@H]3C[C@@]12O[C@@H]1O[C@H](CO)[C@@H](O)[C@H](O)[C@H]1O | – | extracted rat plasma, autosampler | 750 ng/mL, 24 h, 4 °C, post-preparative stability, middle QC | – | accuracy | 98.3 % nominal |
| Cc1ccc(NC(=O)c2ccc(CN3CCN(C)CC3)cc2)cc1Nc1nccc(-c2cncc(-c3oncc3C)c2)n1 | – | Parkinson's disease patients, plasma | oral, 50.0 mg once daily, day 7, 7-day dosing, mean | – | AUC(0-tau) | 32100 ng·h/mL |
| O=C([O-])CN1CCN(CC(=O)[O-])CCN(CC(=O)[O-])CCN(CC(=O)[O-])CC1.[67Ga+3] | RP-TLC | murine plasma | 24 h, 37 °C, 5% CO2 | – | intact radiolabelled complex | 95.5 ± 0.4% |
| COc1cc2ncnc(Nc3ccc(F)c(Cl)c3)c2cc1NC(=O)/C=C/CN1CCCCC1 | poziotinib M2 formation, inhibitor | human liver microsomes | 50 min, pH 7.4, together with: poziotinib 100 µM | – | IC50 | 0.34 µM |
| Cc1ccco1 | metabolic activation to acetaldehyde | pooled human liver microsomes | 10 min, low concentrations | – | Km | 32.9 µM |
| Cn1c(-c2ccc(C(N)=O)cc2F)nnc1C(C)(C)Oc1c(F)cc(Cl)cc1F | – | young non-Japanese humans, plasma | oral, 2 mg once daily, last day of 14 days | – | median half-life | 87.6 h |
| O=C1N=C(N2CCOCC2)CN1c1ccc(Cl)cc1 | – | male beagle dog, plasma | oral, 30 mg/kg, fasted | – | half-life | 1.48 h |
| CN1CCN(Cc2ccc(-c3cnc4[nH]cc(-c5cccc(F)c5)c4c3)cc2)CC1 | metabolic stability | CD-1 mouse, liver microsomes | 20 µM, pH 7.4 | – | half-life | ≥ 0.5 h |
| CCCOc1ccc([C@H]2CNC(=O)N2c2ccc3[nH]cnc3c2)cc1 | – | human, plasma | oral, 400 mg, single dose, fasted | – | AUC(0-inf) | 3560 ng·h/mL |
| Nc1cc(-c2ccccc2)ccc1Cn1cncc1CNc1ccc(-c2nc3ccccc3s2)c(-c2ccccc2)c1 | – | female BALB/c mice, plasma | oral, 50 mg/kg single dose | – | AUC(0-5 h) | 24700 ng·h/mL |
| O=C(c1cccnc1-c1ccncc1)N1CCC(O)(Cc2ccccc2)CC1 | – | healthy human, plasma | oral, 400 mg once daily, day 14, arithmetic mean | – | AUCinf | 3090 ng·h/mL |
| C[N+]1(CC(=O)OC2CCCCCCCCCCC2)CCCC1.[I-] | metabolic stability | male CD-1 mouse, liver microsomes | 1 µM, pH 7.4 | – | half-life | 0.0633 h |
| Oc1ccc2c3c(cnc2c1)-c1ccc(C(F)(F)F)cc1O[C@@H]3c1ccc(OCCN2CC(CF)C2)cc1 | – | human, healthy female | intravenous, 45 µg, together with: oral 400 mg tablets | – | plasma radioactivity half-life | 74.5 h |
| O=C(N/N=C/c1ccc([N+](=O)[O-])o1)c1ccc(O)cc1 | cytochrome c release, ELISA | BALB/cByJ female mouse liver mitochondria | 30 min | reference: alamethicin maximal release | EC20 | > 400 µM |
| COc1cccc(-c2ccc(NC(=O)C3=C(C(=O)O)CCC3)c(F)c2)c1 | – | human, male, plasma | oral, 40 mg once daily, day 0, geometric mean | – | AUC(0-24h) | 78300 ng·h/mL |
| Cn1cnc2c(F)c(Nc3ccc(Br)cc3Cl)c(C(=O)NOCCO)cc21 | ultrafiltration | human end-stage renal disease, plasma | oral, 50 mg | reference: healthy subjects | increase of unbound fraction | ~40% |
| C=C(C)[C@@H]1CC[C@]2(NCCN3CCS(=O)(=O)CC3)CC[C@]3(C)[C@H](CC[C@@H]4[C@@]5(C)CC=C(C6=CC[C@@](CF)(C(=O)O)CC6)C(C)(C)[C@@H]5CC[C@]43C)[C@@H]12 | – | human | oral, 320 mg once daily, day 14, multiple ascending dose | – | AUC(0-tau) | 32000 ng·h/mL |
| CC(C)C[C@H]1C(=O)N2CCC[C@H]2[C@]2(O)O[C@](NC(=O)[C@@H]3C=C4c5cccc6[nH]c(Br)c(c56)C[C@H]4N(C)C3)(C(C)C)C(=O)N12 | – | Sprague-Dawley rat, male, plasma | intravenous, 0.1 mg/kg, together with: DAL 1.7 mg/kg and HAL 0.7 mg/kg | – | AUMC | 4460 ± 1460 µg·h²/L |
| Cc1cc(SCc2cc(=O)[nH][nH]2)c(Cl)cc1Cl | – | human liver microsomes | 5 µM, pH 7.4, without NADPH | – | intrinsic clearance | 16.2 mL/min/kg |
| NCCCC[C@@H]1NC(=O)[C@@H](Cc2c[nH]c3ccccc23)NC(=O)[C@H](c2ccccc2)NC(=O)[C@@H]2C[C@@H](OC(=O)NCCN)CN2C(=O)[C@H](Cc2ccccc2)NC(=O)[C@H](Cc2ccc(OCc3ccccc3)cc2)NC1=O | radioimmunoassay | healthy human male volunteers, plasma | subcutaneous, 1200 µg | – | alpha half-life | 1.7 ± 0.4 h |
